Results gathered from unrelated publications.
Parts stem from different laboratories: compare values within a part only.

Sample 1
Target: RING finger protein unkempt homolog, zinc fingers 1-6, GST-SBP tag (UNK, Homo sapiens, UniProt Q9C0B0, residues 30-357)
Method: RNA Bind-n-Seq
Form: RNA
Sample: in vitro
Tested at: not given
Notes: RNA with constant flanks, ends assumed
Baseline: input RNA pool
Direction: higher = stronger binding
Quantity: bound/input enrichment
Constant ends, left off below: GGGAGUUCUACAGUCCGACGAUC … CAACAGAGGAUUGAGCAUCA
Residues (chain): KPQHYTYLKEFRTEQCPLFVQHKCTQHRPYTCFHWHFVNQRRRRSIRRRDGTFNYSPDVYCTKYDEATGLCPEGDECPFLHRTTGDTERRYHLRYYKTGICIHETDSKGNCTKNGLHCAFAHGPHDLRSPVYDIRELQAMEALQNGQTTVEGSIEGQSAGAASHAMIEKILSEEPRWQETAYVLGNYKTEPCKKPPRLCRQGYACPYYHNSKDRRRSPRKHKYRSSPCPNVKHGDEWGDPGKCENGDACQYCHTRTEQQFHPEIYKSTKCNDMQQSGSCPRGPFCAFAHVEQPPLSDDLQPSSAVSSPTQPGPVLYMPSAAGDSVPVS
ACUUAGCAAGGGCUCUGAAAUGACAAAGAGAACGAGCACCACAAAUGAGAACAGGAUCAUUUCCGUAAAUACAGCUUUAUCCCAAAAGCUUUAACUGUAUUGGGAAAACUUAAAAAAUAG: 0.608 ratio
GAGAGCCGCCUGUCCUGGUUAGAUGGUUCGGGAUUAGGAUUCUCACUGGAAUACCCCACCAUCCGUUUACAUGCGGUGUCCAGGGAUCCAAACGCUUACCCUCAAGAGCAUUUGUAUGUU: 0.0688 ratio
UCUUACACGAUCCAGUCUGAGCUGGGAGACUAUGACCCAGAACUGCACGGCAUGGAUUAUGUCCGUGAUUUUAAACUGGCUCCAAAUCAGACCAAGGAACUUGAAGAAAAGGUCAUGGAA: 0.166 ratio
CAUUCGAAGGUUAAUGAUGAUUGUGAUGUUUAGGAAUGUUUGUCUCAGCCACAGUUCCUUCACCGCUUUUCCAAAAUGAAUUGGGAAAAAAAAAUCGUAUAGCAGUCUUAAAGCUUAGUA: 0.701 ratio
UAACUAAGUGGGCUGUUCAGAAGCUUAGAGGUCAUUUUUUGUAAUUUUCUUUUUAAUUACUUCCGAGAGCUAGGGAUGCAAAUGUUUUCAGUUAGAAAGCCUUUAUUUACUUUUGGAAAU: 3.02 ratio
AUUCCAUAUUUAUUACGGCUGAGACAAGUUAAGGAUGAAACUCUUCAGGCUGCAGUCCGAGAAAUUUUGGCUUUAAUUGGUUAUGUAGAUCCAGUGAAAGGCAGAGGAAUCCGAAUCCUC: 0.11 ratio
CUCUUCUUAAAUUCUACUGCAGGAACAAGUGGGGGUGCUUACGAUCACAGCUAUGCCGAACUUUUUUUGAAUUCUACAGCAGGGGCAAGUGGUGGCGCUUAUGGUAGCCAAAUGAUGGGA: 0.697 ratio
GAUGGCCUUACUAAGUUUUUUACACCAUCACCUGAUGGUCGCAGAUCACGAGGUGAAAUUACCGACUUUUCAAAGCACUAUCGUCCAAGGAAAAAGGUCUCUCAGAAACAGUCAUGCACU: 0.0979 ratio
ACACAGAUAAGGACACAGGAUGAAAGACGUGUGAGUUAAGUCUCAGCUUUCUGUAGAGAGACCGACUAAAAAACAAAUUCAGGAAACCUAGAAAACAAUUAUUUCCCCUGGGCACAGACA: 11.3 ratio
UCUGGUCUCCUUGGAGAAAGGUUCUGUUGCCCUGAUUUAUGAACUCUAUAAUAGAGUAUACCGGUUUUGUACCUUUUUUACAGGAAGGUGACUUUCUGUAACAAUGCGAUGUAUAUUAAA: 0.427 ratio
CGGUGUUGGACAUAUGAAACAUCUCUGCUGGUAGAAGAGGCCAUUAGUGAGGAACUUCCCUACCGUGAAUACUUCGAGUACUUUGCCCCAGAUUUCACACUCCAUCCAGAUGUCAGCACC: 0.178 ratio

Sample 2
Target: RNA binding protein fox-1 homolog 2, RRM domain, GST-SBP tag (RBFOX2, Homo sapiens, UniProt O43251-10, residues 100-194)
Method: RNA Bind-n-Seq
Form: RNA
Sample: in vitro
Tested at: 365 nM
Notes: natural RNA segment, single round, ends assumed
Baseline: no-protein control
Direction: higher = stronger binding
Quantity: RBNS enrichment (R)
Constant ends, left off below: GGGAGUUCUACAGUCCGACGAUC … UGGAAUUCUCGGGUGCCAA
Target sequence (chain): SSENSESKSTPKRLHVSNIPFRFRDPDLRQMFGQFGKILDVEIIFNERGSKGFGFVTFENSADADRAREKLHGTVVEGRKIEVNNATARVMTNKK
UAGCAGAGAUUUGAUAAUAAAAAGAAAAUCCUAAACAAUGAGAAAUAAAGUUACCUGGUUUCUCUGUUCGAAGGAUUUAUAGUAACAUGAGAACUAGUAUCCCUUUGGAA: 0.85
UGUGUUGACAAGUGGUUGAAGGCCAACCGGACGUGUCCCAUCUGCCGGGCCGACGCCUCCGAGGUGCCCAGGGAGGCUGAGUGAGGCCACGCAGCCGCCUGCCCGGGAGA: 0.721
AAGGCAAGAUUCUAACCUAUACAGCCUGAUGCUAGAGCCUGUGAUGACCACUGUGCUUUGCUACCAACUGACUGAACUCCAGCCAGCCAAAUGAAACCAUGUACCCUUGG: 0.456
CCUAUCCCCCUGCCCCCGCCUCACACUACAGUUUAAGAUGUUGCCUCGUAUUGUACAUUUUGGGGAAAGCCUUGUGUGUAAAUCAGUGUAAACUUGGAGGAGAGAUUUUU: 1.14
GUGUGUUCCCUGUAACUGCCCCAUAGUGGGCAGCCCUGGAGGAACAAGGGGCUGGCUGUCCUGGGCUCCCUGACCCACUGAAGCUUCUCAGCACGUUCCUCCCUGGAGAG: 10.7
GGCCAUUCCCUGGGACUCUCGCUCCUGCACUGCCAGCCCCUUCUCCUCUCCCCAGGGCCUGGCCCUACCUCCUGGUCUUGUAAUUACAGGAGCCAUUUCUGUAGGUAACU: 0.894
CUGAAAAGCUUAAAAUAAAUUUCUGAAUUAUGUAUCCUGAAGCUUUGAAAUUUCUUUAUUAAUCGAUGAAAUAUGAAUUCUAAAUUCUAGCAUUGAAGCUUUUCACCAAA: 0.547
ACAACCUGCAGGGCGGCGACGACCUGGACCCCAACUACGUGCUGAGCUCGCGGGUGCGCACGGGCCGCAGCAUCCGUGGCUUCUGCCUCCCCCCGCACUGCAGCCGCGGG: 0.411
UUCCUGCAGUUCUCAAAGGGGAGCCUGCAGACUAGGCCUUCAGAGGGUUCCUUCUGUUUCCUAUUUGGGCACUGAGCCAGAGGAUGGAGUUGUCUCCCUGACAAAUAAUG: 0.322
AAACUUCUAAAAAAGGUCAUGAGAUAAAACAGCUAUUCUUAUGCCUAAAUUAACAGUGGAAAAUACUUUUCUGUAAACAGCCAGGGUAAUAAAAACCAUGAACUAAUUGU: 0.483
AGUACCCACCCCGUCCACCUCCCCCAUGAAGGCAGCUGAGCUUUCAGAGCUGGGUUCAAAAAGAAAAUUCUAGUGUCUAUAUGGAGCACUUGGUUUGGGGGUUCAGGCUC: 0.446
ACCUCACGCCUGAGAUGAUCCUCAGCAUGAUGGACCGUGAUGCUGGGGCCUUGCUCGGCACCAGGACUAUUGGGCUGUGUUUAAACGGCCCAAAUCUUAAUUUUUCUCUU: 8.46

Sample 3
Target: Histone acetyltransferase KAT6A, winged helix 2, GST fusion (KAT6A, Homo sapiens, UniProt Q92794, residues 85-181)
Method: protein binding microarray
Form: double-stranded DNA, one strand shown
Sample: in vitro
Tested at: not given
Notes: 8-mer, flanks averaged, mean of 2 arrays, mostly near background
Baseline: not given
Direction: higher = stronger binding
Quantity: E-score
Target sequence (chain): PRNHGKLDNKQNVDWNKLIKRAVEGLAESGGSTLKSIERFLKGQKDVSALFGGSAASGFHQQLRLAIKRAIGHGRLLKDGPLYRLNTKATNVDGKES
AAGTACCG: 0.0636
CTTTTAGC: -0.0619
ATAAGCGA: 0.0614
CCGGATTA: 0.112
GCCTCTAC: -0.0469
GTCTCAAC: -0.0749
TAATCGAA: 0.0419
CAGCTAAG: 0.119
AATGTACA: -0.0775
CTCCGGAA: 0.0162
CCATGTAA: -0.209
GCCTTCCA: -0.0788
CCAGAGTC: 0.0192
ATTGTTGG: 0.0907
GCGATACC: 0.00731
CTGGATGC: 0.0279
GCGCTGCC: 0.203
ACTGACCA: -0.00438
CTAGCCAC: -0.106
CCTTGGCA: -0.0808
AACCGCCA: -0.00959
AGAGGACG: 0.0859
GCGAACAA: 0.26
AAGATTAG: -0.032
CGCCCGTA: -0.0421

Sample 4
Target: Hepatocyte nuclear factor 3-beta, forkhead domain (FOXA2, Homo sapiens, UniProt Q9Y261, residues 142-269)
Method: protein-binding microarray
Form: hairpin DNA
Sample: in vitro
Tested at: not given
Notes: whole hairpin DNA, median over replicate spots
Baseline: not given
Direction: higher = stronger binding
Quantity: median fluorescence
Target sequence (chain): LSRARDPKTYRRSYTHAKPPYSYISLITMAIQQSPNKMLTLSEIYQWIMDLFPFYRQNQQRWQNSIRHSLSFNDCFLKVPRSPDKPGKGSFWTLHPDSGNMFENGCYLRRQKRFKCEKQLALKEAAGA
GAGGCCATGTAACCCGCGCCTCCTGGCGCGGGTTACATGGCCTCACACTC (5mC at 29): 3290 a.u.
GAGGCCATGTACGCAACGCCTCCTGGCGTTGCGTACATGGCCTCACACTC (5mC at 12 32): 3570 a.u.
GAGGCCATGCAAAGAACGCCTCCTGGCGTTCTTTGCATGGCCTCACACTC: 3240 a.u.
GAGGCCATGTAACCCACGCCTCCTGGCGTGGGTTACATGGCCTCACACTC (5mC at 15): 3150 a.u.
GAGGCCATGCGACCAACGCCTCCTGGCGTTGGTCGCATGGCCTCACACTC: 3490 a.u.
GAGGCCAGGTAACCAACGCCTCCTGGCGTTGGTTACCTGGCCTCACACTC (5mC at 37): 3250 a.u.
GAGGCCATGTAAACGACGCCTCCTGGCGTCGTTTACATGGCCTCACACTC (5mC at 30): 3740 a.u.
GAGGCCATGTAAACCGCGCCTCCTGGCGCGGTTTACATGGCCTCACACTC (5mC at 15): 3320 a.u.
GAGGCCATGCAAACCACGCCTCCTGGCGTGGTTTGCATGGCCTCACACTC: 3410 a.u.
GAGGCCATGCAAACACCGCCTCCTGGCGGTGTTTGCATGGCCTCACACTC: 3650 a.u.
GAGGCCATGTCACCAACGCCTCCTGGCGTTGGTGACATGGCCTCACACTC (5mC at 11): 3290 a.u.
GAGGCCAGGTAACCAACGCCTCCTGGCGTTGGTTACCTGGCCTCACACTC: 3440 a.u.
GAGGCCATGCAAACAGCGCCTCCTGGCGCTGTTTGCATGGCCTCACACTC: 3580 a.u.
GAGGCCCGGCAAACAACGCCTCCTGGCGTTGTTTGCCGGGCCTCACACTC: 3760 a.u.
GAGGCCCGGTAACCAACGCCTCCTGGCGTTGGTTACCGGGCCTCACACTC (5mC at 7 37): 3380 a.u.
GAGGCCATGTAAACAAGGCCTCCTGGCCTTGTTTACATGGCCTCACACTC (5mC at 28): 4160 a.u.
GAGGCCCTGCAAACAACGCCTCCTGGCGTTGTTTGCAGGGCCTCACACTC: 3420 a.u.
GAGGCCATGTAAACCACGCCTCCTGGCGTGGTTTACATGGCCTCACACTC: 3170 a.u.
GAGGCCATGTAAGCAACGCCTCCTGGCGTTGCTTACATGGCCTCACACTC (5mC at 32): 6490 a.u.
GAGGCCAAGTAACCAACGCCTCCTGGCGTTGGTTACTTGGCCTCACACTC: 3330 a.u.
GAGGCCATGTAAACACGGCCTCCTGGCCGTGTTTACATGGCCTCACACTC (5mC at 16): 3560 a.u.
GAGGCCATGTAAACACCGCCTCCTGGCGGTGTTTACATGGCCTCACACTC (5mC at 16): 3960 a.u.

Some of these lines once more (sample 3):
TAATCGAA: 0.0419
ATAAGCGA: 0.0614
AAGTACCG: 0.0636
CCTTGGCA: -0.0808
GCCTCTAC: -0.0469
CTAGCCAC: -0.106
CGCCCGTA: -0.0421
GCGCTGCC: 0.203
CCAGAGTC: 0.0192
GCGATACC: 0.00731
AACCGCCA: -0.00959
CTTTTAGC: -0.0619
